Assay results gathered from unrelated publications.
Compare with care: the assays were run in different laboratories. “And” joins repeats or separate records; there may be more than shown. Numbers after ± are the reported error. Values after ≈ are worked out from the molar mass of the structure shown.

For `COc1ccccc1-c1n[nH]c2nc(N[C@H]3CC[C@H](NS(=O)(=O)CC(C)C)CC3)ncc12`, the relative abundance was 1.05 (bead binding, competition bead pull-down, item: LINJ.36.1320; Leishmania donovani extract; 10 µM; reference: vehicle).
`CN1C(=O)C(C2C3=C(CCCC3=O)Oc3ccc(Cl)cc32)C(=O)N(C)C1=O` (centres unmarked) has an IC50 of 100 to 1000 µg/mL (3T3-L1 mature adipocytes; MTT; 72 h).
`CC(C)CC(C(=O)N1CC2(CC1C#N)C(=O)Nc1ccccc12)N(C)C(=O)c1cc2c(F)cc(F)c(F)c2[nH]1` (centres unmarked) gave an inhibition of 107% (human coronavirus 229E; viral replication; MRC-5; 0.3085 µM).
For `CCN(CC)C(=O)[C@@H]1C=C2c3cccc4c3c(cn4C(=O)c3ccco3)C[C@H]2N(C)C1`, “head-twitch response count” read 6 (magnetometer; C57BL/6J mouse, male; intraperitoneal, 0.0625 mg/kg, 30 min session).
The CD61-positive cells of `O=C(O)c1ccc(-c2nc(-c3ccccc3Cl)c3sccn23)cc1` is reported as 8.6% and 11.8% (K562; megakaryocyte differentiation, flow cytometry; 0.1 mM, 72 h).
`Cc1ccc(NS(=O)(=O)c2c(C(=O)N3CCCCCC3)c(C)n(C)c2C)c(Cl)c1` gave an infection of 101% and 123% and 103% (Human alphaherpesvirus 1; viral infection; HaCaT; 11.11 µM, 36 h; reference: untreated).
With `CC1CCC2C(C)C(CCCOC(=O)C(Cc3ccc(N(CCCl)CCCl)cc3)NC(=O)OC(C)(C)C)OC3OC4(C)CCC1C32OO4` (centres unmarked) the IC50 was 1290 nM (A2780; cell growth or viability, CCK-8).
With `O=C(C[Se]C(=O)c1ccco1)Nc1cccc(C(F)(F)F)c1` the mean TGI was 8590 nM (NCI60 renal subpanel; total growth inhibition, inhibitor; five-dose).
For `Nc1ncc(-c2cc(-c3cnn(CC(F)(F)F)c3)ncc2F)nc1C(=O)NC1CNCC(F)C1` (centres unmarked), the remaining binding was 94% (ABL1(Q252H)-nonphosphorylated; KINOMEscan competition binding; 1 µM; reference: DMSO control).
`CN1C(=O)C(C2C3=C(CC(C)(C)CC3=O)Oc3ccc([N+](=O)[O-])cc32)C(=O)N(C)C1=O` (centres unmarked): “mean lipid content” 0.73 OD492 (3T3-L1 mature adipocytes; lipolysis, Oil Red O staining; IC20).
For `CC[C@H](C)[C@H](NC(=O)[C@H](CCCNC(=N)N)NC(=O)[C@H](CO)NC(=O)[C@H](Cc1ccc(O)cc1)NC(=O)[C@@H](NC(=O)[C@@H](NC(=O)[C@H](C)NC(=O)CNC(=O)[C@H](CCCCN)NC(=O)[C@H](CCCCN)NC(=O)CCNC(=O)CCCCCNC(=O)[C@H](CCCNC(=N)N)NC(=O)CCCCCNC(=O)[C@H](CCCNC(=N)N)NC(=O)[C@H](CCCNC(=N)N)NC(=O)CCCCCNC(=O)[C@H](CCCNC(=N)N)NC(=O)[C@H](CCCNC(=N)N)NC(=O)CCCCCNC(=O)[C@H](CCCNC(=N)N)NC(=O)[C@H](CCCNC(=N)N)NC(=O)CCCCCNC(=O)[C@@H](N)CCCNC(=N)N)C(C)C)[C@@H](C)O)C(=O)N[C@@H](CO)C(=O)NCC(=O)N[C@@H](CCC(N)=O)C(=O)N[C@@H](Cc1ccc(O)cc1)C(=O)N[C@@H](CCCCN)C(=O)O`, the MIC was 12 µM (≈ 42.9 µg/mL) (broth microdilution; ATCC 1720 resistant strain, Mueller-Hinton broth).
The TGI of `CC(C)(C)C(=O)OCOP(=O)(OCOC(=O)C(C)(C)C)C1CCCN(O)C1=O` (centres unmarked) is reported as 28700 nM (SNB-19).
`Cc1cc(C(=O)Nc2nc3cccc(C)c3n2[C@H]2CCCCN(C(=O)/C=C/CN(C)C)C2)ccn1` — result for “cells in G2 phase”: 35.9% (Trypanosoma brucei; propidium iodide flow cytometry; bloodstream form; concentration not given, 16 h).
`Cc1ccc2nc(C(F)(F)F)c(C(=O)NCc3ccc4c(c3)OCO4)n2c1` gave an IC50 of 1740 nM (Mycobacterium tuberculosis; bacterial growth, inhibitor; mmpL3-TetON).
`O=C(C[Se]C(=O)C12CC3CC(CC(C3)C1)C2)Nc1cccc(C(F)(F)F)c1` has a CC50 of 41900 nM (NCI60 ovarian subpanel; cytotoxicity, inhibitor; five-dose).
For `CCCCCC1=C(NCC)C(=O)C(C/C=C(\C)CCC=C(C)C)=C(O)C1=O`, “normalised enrichment score” read 1.69 (RNA-seq GSEA, item: HALLMARK_ALLOGRAFT_REJECTION; mouse, A53T α-synuclein lesioned, striatum; dose not given; reference: untreated A53T lesioned mice, direction not given).
With `COc1ccccc1-c1n[nH]c2nc(NC3CCN(C(=O)Cc4ccc(F)cc4F)CC3)ncc12` the relative abundance was 1.18 (bead binding, competition bead pull-down, item: LINJ.19.1560; Leishmania donovani axenic amastigote extract; 10 µM; reference: vehicle).
The inhibition of `Cc1ccc2c(n1)c(-c1cccc(S(C)(=O)=O)c1)c(C)n2C/C(F)=C/CN` is reported as 52% (L-type calcium channel, rat, Benzothiazepine site; radioligand binding, Eurofins SafetyScreen; 10 µM).
`CCN(CC)C(=O)[C@@H]1C=C2c3cccc4c3c(cn4C(=O)c3cccs3)C[C@H]2N(C)C1`: “head-twitch response count” 40 (magnetometer; C57BL/6J mouse, male; intraperitoneal, 6 mg/kg, 30 min session).
With `CN1C(=O)C(C2C3=C(CCCC3=O)Oc3ccc(Br)cc32)C(=O)N(C)C1=O` (centres unmarked) the IC20 was 26.8 µg/mL (≈ 61.9 µM) (3T3-L1; cell growth or viability, MTT; 72 h).
`[2H]C([2H])([2H])C1(C([2H])([2H])[2H])NC(=O)N(c2ccc(F)c(C(F)(F)F)c2)C1=O` gave an ED50 of 8 mg/kg (Schistosoma mansoni; adult, infected mice; oral, single dose).
For `CC(O)CN.O=C(O)C(Cl)Cl`, the inhibition was 0% (Solanum nigrum; herbicidal activity; 15 mg/mL, 21 days, pre-emergence greenhouse).
The IC50 of `CCOC(=O)/C=C/[C@H](C[C@@H]1CCNC1=O)NC(=O)[C@@H](CC(=O)[C@@H](NC(=O)c1cc(C)on1)C(C)C)Cc1ccc(F)cc1` is reported as 5 ± 2 nM (Rhinovirus A; viral replication, high-content imaging; RV-A16).
For `O=C(C[Se]C(=O)c1cccs1)Nc1cccc(C(F)(F)F)c1`, “mean growth percent” read -76.7% (NCI60 ovarian subpanel; cell growth; 10 µM, 48 h, one-dose).
For `CC[C@H]1OC(=O)[C@H](C)[C@@H](OC(=O)Cc2ccccc2)[C@H](C)[C@@H](O[C@@H]2O[C@H](C)C[C@H](N(C)C)[C@H]2O)[C@](C)(OC)C[C@@H](C)C(=O)[C@H](C)[C@@H](O)[C@]1(C)O`, the IC50 was 830 nM (Escherichia coli ribosome; in vitro transcription-translation, inhibitor).
`Cc1cc(Oc2nc(N3CC[C@@H](c4ccncc4)C3)ncc2F)[nH]n1` gave a normalised growth of 13.2% and 22.6% (Mycobacterium tuberculosis; THP-1, H37Rv non-replicating; 9.488 µM, day 4).

Excerpt of the above:
For `CC[C@H](C)[C@H](NC(=O)[C@H](CCCNC(=N)N)NC(=O)[C@H](CO)NC(=O)[C@H](Cc1ccc(O)cc1)NC(=O)[C@@H](NC(=O)[C@@H](NC(=O)[C@H](C)NC(=O)CNC(=O)[C@H](CCCCN)NC(=O)[C@H](CCCCN)NC(=O)CCNC(=O)CCCCCNC(=O)[C@H](CCCNC(=N)N)NC(=O)CCCCCNC(=O)[C@H](CCCNC(=N)N)NC(=O)[C@H](CCCNC(=N)N)NC(=O)CCCCCNC(=O)[C@H](CCCNC(=N)N)NC(=O)[C@H](CCCNC(=N)N)NC(=O)CCCCCNC(=O)[C@H](CCCNC(=N)N)NC(=O)[C@H](CCCNC(=N)N)NC(=O)CCCCCNC(=O)[C@@H](N)CCCNC(=N)N)C(C)C)[C@@H](C)O)C(=O)N[C@@H](CO)C(=O)NCC(=O)N[C@@H](CCC(N)=O)C(=O)N[C@@H](Cc1ccc(O)cc1)C(=O)N[C@@H](CCCCN)C(=O)O`, the MIC was 12 µM (≈ 42.9 µg/mL) (broth microdilution; ATCC 1720 resistant strain, Mueller-Hinton broth).
The TGI of `CC(C)(C)C(=O)OCOP(=O)(OCOC(=O)C(C)(C)C)C1CCCN(O)C1=O` (centres unmarked) is reported as 28700 nM (SNB-19).
`Cc1cc(C(=O)Nc2nc3cccc(C)c3n2[C@H]2CCCCN(C(=O)/C=C/CN(C)C)C2)ccn1` — result for “cells in G2 phase”: 35.9% (Trypanosoma brucei; propidium iodide flow cytometry; bloodstream form; concentration not given, 16 h).
`Cc1ccc2nc(C(F)(F)F)c(C(=O)NCc3ccc4c(c3)OCO4)n2c1` gave an IC50 of 1740 nM (Mycobacterium tuberculosis; bacterial growth, inhibitor; mmpL3-TetON).
